# Experimental data collected from several papers.
# Numbered parts are unrelated; each lists some results of a single study.

# Series 1
# Target: Fragile X messenger ribonucleoprotein 1, C-terminal low-complexity region (Fmr1, Mus musculus, UniProt P35922)
# Technique: RNA Bind-n-Seq
# Molecule type: RNA
# Sample: in vitro
# Tested at: 200 nM
# Setting: whole 134-nt RNA, ends assumed
# Added: 150 mM KCl
# Relative to: input library
# Direction: higher = stronger binding
Sequence,log2 enrichment
GGGAGUUCUACAGUCCGACGAUCUAACUUUAGAGGAGGAUCUGAUGGAUAUGGCAGUGGACGUGGAUUUGGGGAUGGAUAUAAUGGGUAUGGAGGAGGACCUGGAGGUGGCAAUGGAAUUCUCGGGUGUCAAGG,0.318
GGGAGUUCUACAGUCCGACGAUCCCUCAAGUCCUGUGCUACACAUCGUAUGUACCGAAUCGGGAGGGGAGGGAGGAAAGUAUUAUGUUACGCCGUUCGGAUCUGCACUUCCAGUGGAAUUCUCGGGUGUCAAGG,0.65
GGGAGUUCUACAGUCCGACGAUCGCAGGAAGUAAAAACAAAUGGAAAUGCUUCGGAUAGUGGCAGGGGUGGGGGUUGCUAAGGAAAGGGUGGGAUGGGAGUGGGUAAAUAGUUUGGAAUUCUCGGGUGUCAAGG,-0.167
GGGAGUUCUACAGUCCGACGAUCCUCAAGUCCUGUGCUACACAUCGUAUGUACCGAAUCGGGGUUGGGGUUGGUUGGAAAGUAUUAUGUUACGCCGUUCGGAUCUGCACUUCCUGGAAUUCUCGGGUGUCAAGG,0.454

# Series 2
# Target: Sal-like protein 4, full length isoform B (SALL4, Homo sapiens, UniProt Q9UJQ4-2, residues 1-616)
# Technique: universal PBM
# Molecule type: double-stranded DNA, one strand shown
# Sample: in vitro
# Tested at: not given
# Setting: 8-mer, flanks averaged, mean of replicates
# Direction: higher = stronger binding
Sequence,E-score
GTGATTTA,0.209
ATACACGC,0.0742
CAGCGTAG,-0.193
AAACTTGT,0.29

# Series 3
# Target: Prothrombin, mature alpha-thrombin (F2, Homo sapiens, UniProt P00734)
# Technique: aptamer microarray, sandwich
# Molecule type: DNA with 2'F-ANA
# Sample: in vitro
# Tested at: 200 nM
# Setting: whole 15-mer aptamer, many near background
# Added: Cy3 exosite-II aptamer, 400 nM
# Direction: higher = stronger binding
# Sequence: GGTTGGTGTGGTTGG
Modification,mean fluorescence intensity
2'F-ANA at 3 7 8 9 10 12 14 15,431 a.u.
2'F-ANA at 1 2 3 9 11 13 14 15,66.7 a.u.
2'F-ANA at 3 4 5 6 7 10 11 13 14,59 a.u.
2'F-ANA at 1 3 7 10 12 14 15,77.3 a.u.
2'F-ANA at 5 6 7 9 10 12 13,50 a.u.

# Mixed results
Molecule,target,test,test system,setting,how to read,endpoint,result
"PhoQ, residues 284 288 289 292 302 303 SVTLVV","PhoP, residues 12 14 15 18 19 QWHVF (Escherichia coli, UniProt P23836)","Sort-seq, refers to: YFP reporter",E. coli,"PhoQ-PhoP variant library, added: 10 µM Mg2+","relative to: high Mg2+ state, higher = stronger signaling",fold induction,2.96

# For quick reference, copied from above (series 3):
Modification,mean fluorescence intensity
2'F-ANA at 3 4 5 6 7 10 11 13 14,59 a.u.
2'F-ANA at 1 3 7 10 12 14 15,77.3 a.u.
